Results of several laboratories.
A part holds a random share of what one study measured.

Sample 1 — technique: RNA Bind-n-Seq; molecule type: RNA; medium: in vitro; concentration: 1 µM; setting: whole 134-nt RNA, ends assumed; with: 150 mM KCl; relative to: input library; direction: higher = stronger binding; endpoint: log2 enrichment
Target: Ras GTPase-activating protein-binding protein 1, C-terminal RGG region (G3BP1, Homo sapiens, UniProt Q13283)
Chain of UniProt Q13283 (whole entry, looked up): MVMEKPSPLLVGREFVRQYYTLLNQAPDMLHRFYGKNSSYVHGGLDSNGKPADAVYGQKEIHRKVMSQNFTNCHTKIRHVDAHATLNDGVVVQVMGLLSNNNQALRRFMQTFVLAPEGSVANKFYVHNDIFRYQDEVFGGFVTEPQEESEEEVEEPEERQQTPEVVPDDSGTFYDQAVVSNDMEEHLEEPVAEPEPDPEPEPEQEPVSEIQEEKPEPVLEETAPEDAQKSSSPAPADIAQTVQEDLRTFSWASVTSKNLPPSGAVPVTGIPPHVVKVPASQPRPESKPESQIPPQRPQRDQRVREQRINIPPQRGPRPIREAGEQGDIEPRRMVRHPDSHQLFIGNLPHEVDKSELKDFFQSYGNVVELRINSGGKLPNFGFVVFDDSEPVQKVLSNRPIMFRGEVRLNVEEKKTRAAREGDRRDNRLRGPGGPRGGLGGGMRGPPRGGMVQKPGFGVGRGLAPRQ
Constant ends, left off below: GGGAGUUCUACAGUCCGACGAUC … UGGAAUUCUCGGGUGUCAAGG
CAAGUCCUGUGCUACACAUCGUAUGUACCGAAUCGGGGAAAGGGGAAAGGGAAAGGAAAGUAUUAUGUUACGCCGUUCGGAUCUGCACUU: -1.07
UUUCUUCCCCCACAGUUCAUCCAUGAGCUCGGAUUUCCCACAUUACAACUUCAGGAUGCCUAAUAUUGGAUUCCAGAAUCUGCCUCUCAA: 0.443
AGUCCUGUGCUACACAUCGUAUGUACCGAAUCGGGCCCCGGCCCCGGGGCCCCGGGGAAAGUAUUAUGUUACGCCGUUCGGAUCUGCACU: -2.36
UGAAUCCUUCCUUGAUGAUGAAGAGGUAUGUCAACAAGGGUAAUAAUUUGUUUUCUUCUGAUUACUCUCAUAUUUUUAUUAUCUUUUAUU: -1.47
CAAGUCCUGUGCUACACAUCGUAUGUACCGAAUCGGGGAGGGGAGGGGAAAGGGGAAAGUAUUAUGUUACGCCGUUCGGAUCUGCACUUC: 3.03
GUCCUGUGCUACACAUCGUAUGUACCGAAUCGGUUUUUUGGGUUUUUUGGGUUUUUUGGAAAGUAUUAUGUUACGCCGUUCGGAUCUGCA: -1.31
CUCAAGUCCUGUGCUACACAUCGUAUGUACCGAAUCGGAGGAAAGGAAAAAGGAAAGUAUUAUGUUACGCCGUUCGGAUCUGCACUUCCA: -1.37
CCUGUGCUACACAUCGUAUGUACCGAAUCAAAGUGUGUGUGUGUAAAGUGUGUGUGUAAAAAAGUAUUAUGUUACGCCGUUCGGAUCUGC: -0.349
ACCAUGCAGGUGGGCAUCUUUGGGAAGUGGGGCAAGGGGGGGAUAGGGAGGGGGGUAACACUUUGGGAACAGGUGGUCCUAGGUCGUUUC: 1.89

Sample 2 — technique: RNA Bind-n-Seq; molecule type: RNA; medium: in vitro; concentration: 365 nM; relative to: no-protein control; direction: higher = stronger binding; endpoint: RBNS enrichment (R)
Target: RNA binding protein fox-1 homolog 2, RRM domain, GST-SBP tag (RBFOX2, Homo sapiens, UniProt O43251-10, residues 100-194)
Setting: natural RNA segment, single round, ends assumed
Constant ends, left off below: GGGAGUUCUACAGUCCGACGAUC … UGGAAUUCUCGGGUGCCAA
Construct (chain): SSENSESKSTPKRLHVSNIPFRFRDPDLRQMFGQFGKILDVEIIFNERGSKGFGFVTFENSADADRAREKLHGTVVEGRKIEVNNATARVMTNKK
CUGGACCUCCAGCUGGGAGGUCAUCCUCCCUCUAGCUUGUAUGUCCUGUACUUUGCAACCCCUAAGCUUCAAACCUCUUGCUCAAGACCCAAGACUUAUUCAAAGCUGUG: 1.15
AAGAGAAGAAAUGAGUGACCAUCCAGCCUUUCCCAAUUAGACUUCCUCUCCUUCCACCCCUCAUUUCCUUUUUGCACACAUUACAGGUGGUGUGUUCUGUGAUAAUGAAA: 0.627
CUUGCAUAAAGAAGGUGUGGCCUCUGAGCUCUCAAGGGCCCCAGUUGCCACCAACCACCACCACAGGUGGCCUUAUGGCUCUUCCUGGAUGUUCGAUUCAUGUAAGUGAC: 0.253
UUCAUGAAUAUCUGACUUUAAUAAGUUGGUAAGGAUAUAUUUUUUUGUCUAUGUUCUGUUUCAACUUAUGUAGAUUAUUAUAAAUUGAUGUAAACCACGUGAGAGGAAAA: 0.421
UUAAACUACAAAACUAAUAUGUAUGUGUACCAAACUGAUUUAAAAUAAAUGUUUAUUAGUCUCUUGAUCAAAAGUGUCAUAUUUUGAUUAUGAAAUUAACAUUGUGUUUG: 0.393
AGAGAGCUGAAGCCAUCUGGUUCUUAGAUUCCUCUCCCAGUCCUCUUUCCCAUUGUUCUGUUGCUCCACCUUAUUGUCUCAAGGCCGUAAUCUCAUCAGGUUGGGACAUU: 0.446
GGGGAAAAAGAUAUUAACAUCACGUCUUUGUCUCUAGAGCAGUUUUCCGAGAUAUUCCGUAGUACAUAUUUAUUUUUAAACAGCAACAAAGAAAUACAGAUAUAUCUUAA: 1.01
AGUUAACCCUUUACUUUUCCUUCCAUGUGUAUUUUCUUAUAUACUGUGAAUGUGAAAACCUAACUGGUACACUUGAUCUUGUGUUCAUAUGAAAGUGCAAGUCUUUAUUA: 0.356

Sample 3 — technique: protein-binding microarray; molecule type: hairpin DNA; medium: in vitro; concentration: not given; relative to: not given; direction: higher = stronger binding; endpoint: median fluorescence
Target: Cyclic AMP-dependent transcription factor ATF-1, full length (ATF1, Homo sapiens, UniProt P18846, residues 1-271)
Setting: whole hairpin DNA, median over replicate spots
Construct (chain): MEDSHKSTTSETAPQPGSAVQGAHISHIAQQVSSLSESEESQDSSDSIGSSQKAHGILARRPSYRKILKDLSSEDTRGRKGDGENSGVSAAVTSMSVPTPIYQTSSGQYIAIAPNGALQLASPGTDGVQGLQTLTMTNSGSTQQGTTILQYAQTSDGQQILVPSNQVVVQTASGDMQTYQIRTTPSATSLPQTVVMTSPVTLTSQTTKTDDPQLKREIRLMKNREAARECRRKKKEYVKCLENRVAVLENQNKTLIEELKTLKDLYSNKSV
GAGGCCGGATGACGTCCGCCTCCTGGCGGACGTCATCCGGCCTCACACTC: 7930 a.u.
GAGGCCGACGACGCGGTGCCTCCTGGCACCGCGTCGTCGGCCTCACACTC (5mC at 9 14 29 30 35): 5230 a.u.
GAGGCCGGCTGACGCGAGCCTCCTGGCTCGCGTCAGCCGGCCTCACACTC (5mC at 15): 5880 a.u.
GAGGCCGAAGACGTCGTGCCTCCTGGCACGACGTCTTCGGCCTCACACTC (5mC at 15 29 35): 3550 a.u.
GAGGCCGGATGACCTCAGCCTCCTGGCTGAGGTCATCCGGCCTCACACTC: 3530 a.u.
GAGGCCGGCTGACGTCAGCCTCCTGGCTGACGTCAGCCGGCCTCACACTC: 11600 a.u.
GAGGCCGGCTGAGGTCAGCCTCCTGGCTGACCTCAGCCGGCCTCACACTC (5mC at 32): 3130 a.u.
GAGGCCGACGAGGTCGTGCCTCCTGGCACGACCTCGTCGGCCTCACACTC (5mC at 9 15 29 33 35): 3070 a.u.
GAGGCCGACGACGTGGTGCCTCCTGGCACCACGTCGTCGGCCTCACACTC (5mC at 9 29 30 35): 5340 a.u.
GAGGCCGGATGACGTCAGCCTCCTGGCTGACGTCATCCGGCCTCACACTC (5mC at 13): 6010 a.u.
GAGGCCGACGACCGCGTGCCTCCTGGCACGCGGTCGTCGGCCTCACACTC (5mC at 9 13 15 29 35): 3590 a.u.
GAGGCCGCGGACGTCGTGCCTCCTGGCACGACGTCCGCGGCCTCACACTC (5mC at 8 15 29 35 36): 3750 a.u.
GAGGCCGTATGACGTCAGCCTCCTGGCTGACGTCATACGGCCTCACACTC: 10900 a.u.
GAGGCCCGATGACGTCAGCCTCCTGGCTGACGTCATCGGGCCTCACACTC (5mC at 37): 13900 a.u.
GAGGCCGGATCGCGTCAGCCTCCTGGCTGACGCGATCCGGCCTCACACTC (5mC at 11): 3810 a.u.
GAGGCCGCATGACGTCAGCCTCCTGGCTGACGTCATGCGGCCTCACACTC: 14000 a.u.

Sample 4 — technique: protein binding microarray; molecule type: double-stranded DNA, one strand shown; medium: in vitro; concentration: not given; relative to: not given; direction: higher = stronger binding; endpoint: E-score
Target: Histone acetyltransferase KAT6A, winged helix 1, GST fusion (KAT6A, Homo sapiens, UniProt Q92794, residues 1-85)
Setting: 8-mer, flanks averaged, mean of 2 arrays, mostly near background
Construct (chain): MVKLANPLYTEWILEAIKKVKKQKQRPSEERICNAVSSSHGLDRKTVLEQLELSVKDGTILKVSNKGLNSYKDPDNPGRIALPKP
CAAATGTG: -0.072
AATGGAAT: -0.128
ATGGAGCA: -0.09
CATAGGAG: -0.171
AAAACACA: -0.292
AAACTGTT: -0.0896
AATCGTTA: -0.0862
AACTTGTA: 0.0802
AAACTAGC: 0.0477
AAGCTGAT: -0.0672
AACTATCT: -0.175
CAGGCCAC: -0.0132
CTAAATCC: -0.0815
CGTTTGAC: 0.11
ACAGGTGC: -0.128
CCAGGAAG: -0.0555

For quick reference, copied from above (sample 4):
CCAGGAAG: -0.0555
AACTTGTA: 0.0802
AAACTAGC: 0.0477
